Measurements from different studies.
Compare with care: the assays were run in different laboratories.

`COc1cc2c(C=C3C(=O)Nc4ccccc43)c[nH]c2cc1C`: “maximum tolerated dose” 400 mg/kg (female athymic nude mouse; intraperitoneal).
For `CN(C)C(CNC(=O)Nc1cc(C(F)(F)F)ccc1N1CCOCC1)c1ccncc1` (stereo not drawn), “maximum tolerated dose” read 240 mg/kg (C57BL/6J mouse; intraperitoneal, 14 days).
For `Cc1cc2c(cc1O)C=C1C=CC(=O)C(C)(C)[C@H]1CC2`, “maximum tolerated dose” read no more than 1000 mg/kg (C57BL/6J mouse both sexes; oral gavage, single dose).
`C[C@@H](c1ccccc1)N(CC(N)=O)C(=O)CN(C(=O)CN(CCCCN)C(=O)CN(C(=O)CN(C(=O)CN(CCCCN)C(=O)CN(C(=O)CN(C(=O)CN(CCCCN)C(=O)CN(C(=O)CN(C(=O)CNCCCCN)[C@@H](C)c1ccccc1)[C@@H](C)c1ccccc1)[C@@H](C)c1ccccc1)[C@@H](C)c1ccccc1)[C@@H](C)c1ccccc1)[C@@H](C)c1ccccc1)[C@@H](C)c1ccccc1` — result for “maximum tolerated dose”: 2.5 mg/kg (mouse).
`CCN(CCCCOc1ccc(CCC(=O)N2CCC(Cc3ccccc3)CC2)cc1O[11CH3])Cc1ccccc1`: “maximum brain uptake” 7 %ID/cc (PET-CT; mouse, brain; intravenous).
`CN1CCN(c2ccc(Nc3ncc(Cl)c(Nc4ccccc4NS(=O)(=O)C4CC4)n3)cc2)CC1`: “maximum safe dose” less than 100 mg/kg (Kunming mouse, both sexes; intravenous, 72 h).
Under “maximum tolerated dose”, `CC[C@H](C)[C@H](NC(=O)CN)C(=O)NCC(=O)N[C@@H](C)C(=O)N[C@H](C(=O)N[C@@H](CC(C)C)C(=O)N[C@@H](CCCCN)C(=O)N[C@H](C(=O)N[C@@H](CC(C)C)C(=O)N[C@H](C(=O)N[C@H](C(=O)NCC(=O)N[C@@H](CC(C)C)C(=O)N1CCC[C@H]1C(=O)N[C@@H](C)C(=O)N[C@@H](CC(C)C)C(=O)N[C@H](C(=O)N[C@@H](CO)C(=O)N[C@@H](Cc1c[nH]c2ccccc12)C(=O)N[C@H](C(=O)N[C@@H](CCCCN)C(=O)N[C@@H](CCCNC(=N)N)C(=O)N[C@@H](CCCCN)C(=O)N[C@@H](CCCNC(=N)N)C(=O)N[C@@H](CCC(N)=O)C(=O)N[C@@H](CCC(N)=O)C(N)=O)[C@@H](C)CC)[C@@H](C)CC)[C@@H](C)O)[C@@H](C)O)C(C)C)C(C)C` is recorded as 5.7 mg/kg (mouse; intratumoral).
`CCCCCCCCC=CCCCCCCCC(=O)OCC1OC(n2ccc(N)nc2=O)C(F)(F)C1O` (stereo not drawn): “maximum tolerated dose” 40 mg/kg (BALB/c nude mouse; intraperitoneal, every 3 days, five doses, <10% weight loss).
`O=C1C(P(=O)(O)O)CCCN1O` (stereo not drawn): “maximum tolerated dose” no more than 75 mg/kg (nude mouse; intravenous, without neutralization).

Repeated from above:
For `Cc1cc2c(cc1O)C=C1C=CC(=O)C(C)(C)[C@H]1CC2`, “maximum tolerated dose” read no more than 1000 mg/kg (C57BL/6J mouse both sexes; oral gavage, single dose).
